Assay results pooled from the literature.
Every numbered part comes from another study and shows a few of its results, in no order.

Sample 1
Target: Interferon regulatory factor 5, full length, phosphomimetic (IRF5, Homo sapiens, UniProt Q13568-2, residues 1-514, K96S/S451D/S453D/S456D/S462D)
Method: protein-binding microarray
Form: double-stranded DNA, one strand shown
Sample: in vitro
Tested at: 250 nM
Notes: 60-bp whole probe
Added: salmon DNA 0.4 mg/ml
Reference: random background probes
Reading: higher = stronger binding
Shared flanks, not repeated: GCCTAGCAC … GTCTTGATTCGCTTGACGCTGCTG
Sequence	log fluorescence [z-score]
TTCGAACTGGGGTATCGATTAGTGCTA	2.45
TTAGATTCCAGTTTCGAATAGTGCTAG	5.91
TTAGGACTGGACACGGGGTTAGTGCTA	-0.832
TTAGGACTGCTTATGCTTTAGTGCTAG	-0.405
TCACCTCACAGTTTGTAACTGTGCTAG	-0.154
TCATAATTCACTATTACACTGTGCTAG	1.02
TTAGTTTTCGGGTATCGGTTAGTGCTA	8.14
TTAGATCTCAGTTTCGATTCGTGCTAG	8.93
TCAGTCTTGGTTCTCAGACTGTGCTAG	-0.0874
TGAGGTTTCGGACTGGGTTAGTGCTAG	3.47
TTAGGTATCGGGTATCGGATAGTGCTA	4.94
TTAGGTTTCGGGTTACGGTTAGTGCTA	8.77
CCTACCGCCCTTACCGCCGCGTGCTAG	-0.564
GTATTTTTCTAAACCATTTTGTGCTAG	1.35
TTAGATCTCAGTCGCGATTAGTGCTAG	0.102
GACGGTTTCCTTCTCCAGACGTGCTAG	0.894
GACGGTATTGGTTTCGGGACGTGCTAG	5.41
AAATGATTGGTTGAACATGAGTGCTAG	-0.0916
AGCTGTTTCTGTGTCACAGAGTGCTAG	3.3
GACGGTATCGGTACCGGGACGTGCTAG	4.89
TTAGGTTTCCTTATGCTTTAGTGCTAG	0.844
TCAACCCTCCCTCTGTAACTGTGCTAG	-0.392
GACGATATCGCGTTTCGAGACGTGCTA	1.84
CTTTTATGCTCTTTCTACATGTGCTAG	1.68
TTAGGTATTCTTCTCCTTTAGTGCTAG	0.382

Sample 2
Target: Sal-like protein 4, full length isoform A (SALL4, Homo sapiens, UniProt Q9UJQ4, residues 1-1053)
UniProt Q9UJQ4, sequence (whole entry, looked up): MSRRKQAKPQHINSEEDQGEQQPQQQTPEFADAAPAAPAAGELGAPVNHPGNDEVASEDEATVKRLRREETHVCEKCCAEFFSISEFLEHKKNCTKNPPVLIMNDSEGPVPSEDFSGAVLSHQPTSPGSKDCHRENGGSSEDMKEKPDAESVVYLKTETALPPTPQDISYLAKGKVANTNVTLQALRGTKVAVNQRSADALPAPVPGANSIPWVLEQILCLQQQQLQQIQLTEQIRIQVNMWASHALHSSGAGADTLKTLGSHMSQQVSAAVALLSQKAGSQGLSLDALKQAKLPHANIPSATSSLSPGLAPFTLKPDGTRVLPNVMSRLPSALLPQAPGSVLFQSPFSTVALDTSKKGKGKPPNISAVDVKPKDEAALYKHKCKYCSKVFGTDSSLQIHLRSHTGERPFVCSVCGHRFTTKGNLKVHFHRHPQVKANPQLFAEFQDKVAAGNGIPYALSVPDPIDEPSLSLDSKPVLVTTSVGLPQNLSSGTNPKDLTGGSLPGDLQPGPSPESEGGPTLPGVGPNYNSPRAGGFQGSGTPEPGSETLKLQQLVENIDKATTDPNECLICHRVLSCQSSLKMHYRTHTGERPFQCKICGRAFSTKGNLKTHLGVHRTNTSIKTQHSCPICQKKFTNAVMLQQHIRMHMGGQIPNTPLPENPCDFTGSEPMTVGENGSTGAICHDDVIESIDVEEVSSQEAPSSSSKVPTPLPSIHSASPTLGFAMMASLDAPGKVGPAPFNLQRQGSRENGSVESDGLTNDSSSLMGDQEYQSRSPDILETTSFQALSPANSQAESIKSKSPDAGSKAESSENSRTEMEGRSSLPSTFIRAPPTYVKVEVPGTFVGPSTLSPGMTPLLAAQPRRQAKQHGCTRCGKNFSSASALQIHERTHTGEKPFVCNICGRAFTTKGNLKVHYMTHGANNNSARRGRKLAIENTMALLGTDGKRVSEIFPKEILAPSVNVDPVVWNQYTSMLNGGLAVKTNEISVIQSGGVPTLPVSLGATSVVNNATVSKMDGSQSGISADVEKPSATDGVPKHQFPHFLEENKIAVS
Method: universal PBM
Form: double-stranded DNA, one strand shown
Sample: in vitro
Tested at: 600 nM
Notes: 8-mer, flanks averaged, mean of replicates
Reading: higher = stronger binding
Sequence	E-score
GGTGGGAC	-0.223
GAGCAACC	-0.174
GACACAAC	0.126
AATCGATC	0.0253
CTTATAAA	0.28
GAATGGAC	-0.0886
CACCGTTC	-0.105
AGGACCTA	0.00104
CGATCTAG	-0.0363
GTTAATGA	0.251
CATTTTCG	0.176
TAACTGCA	0.169
CGGGCCGA	-0.466
TGTAGGAA	0.119
GGCTTGAA	0.00249
CCTGAGAA	0.0626
ACATAATC	0.255
CCCTGGGC	-0.432
CCCCCCAA	-0.301
GGGGCCCC	-0.437
CAGATTCG	0.0105
GAATCGTA	0.121
AAGCACAA	0.203
CACACTGA	-0.0583
AGACACGG	-0.091

Sample 3
Target: RING finger protein unkempt homolog, zinc fingers 1-6, GST-SBP tag (UNK, Homo sapiens, UniProt Q9C0B0, residues 30-357)
Method: RNA Bind-n-Seq
Form: RNA
Sample: in vitro
Tested at: not given
Notes: RNA with constant flanks, human and mouse sites, ends assumed
Reference: input RNA pool
Reading: higher = stronger binding
Shared flanks, not repeated: GGGAGUUCUACAGUCCGACGAUC … CAACAGAGGAUUGAGCAUCA
Residues (chain): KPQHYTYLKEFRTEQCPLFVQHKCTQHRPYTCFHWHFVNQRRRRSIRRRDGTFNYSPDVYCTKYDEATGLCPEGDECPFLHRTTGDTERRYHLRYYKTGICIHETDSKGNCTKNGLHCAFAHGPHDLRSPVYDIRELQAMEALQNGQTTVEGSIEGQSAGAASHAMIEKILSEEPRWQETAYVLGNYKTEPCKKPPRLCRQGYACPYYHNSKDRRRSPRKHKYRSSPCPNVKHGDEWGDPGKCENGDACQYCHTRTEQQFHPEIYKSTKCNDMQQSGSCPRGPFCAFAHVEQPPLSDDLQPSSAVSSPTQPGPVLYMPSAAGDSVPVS
Sequence	bound/input enrichment
UGCCCAUCUUAGGUUGCGGUGACCGAGGUUUGUGAGGUUUUCCUUGUUUGAGAUAAAUUCUAGCAUUUGCUUUAUCAUAUACUCCUCCUGUGUGAGCGUGGAAAAGUUUAGAAUUGUAUG	0.485 ratio
AUAUUGGAUGCAGUGUAACACUAUCCAAGGCAGUGACUUCAGCUUUAUAUACAUAUAAAAUAUAGUUAGUUUUAAAAUUAUUGACAUUUAUUUAAACUUUUAGAUUGGAUUGUUUGCUAU	62.4 ratio
UCCUUGGAGUUGAUGAUGUUAUGGAAGAGCUUAACUUUUAAAACAUUUAAACAGAGCAUAACCAGGUUUUACAGAGGAGAUACAAAGCAAUUUCUCCAUACCUUCAAAAGCCAUGUCUUC	0.128 ratio
CCAUGACCAGUGUGACUCAAAGCAAUGUGAUCUCCCUUGAUUCAAACGCACACCUCUGCCCUGCUGGAGAAGGUUUAGGGCCAUGUCUGAGAGAUUGGUCUUUCAUUGGGCAACGGGGGG	0.0585 ratio
UCUUUUAUAUUUCCUCAAAUACUGUGAAUGGUCUGAGGCGCAGGGUAAAAUAUUUGGAGUACCUUUUAAUGCACUGCCCCAUUCUGCUGUACCAGAAUAUGGACACAUUCCAAGCUUUCU	0.21 ratio
AGUCUGCCUGGUGAGGCUGGCAGGUGGGAGUCUAAUGCAGUCAGGAGCAUUUGCAUGCAGUGGGUGGAGAGUCGGCCACCAAAGGACCGAGUUGCGCUCGGAAUUUGAGCUGAAUUCCAC	0.177 ratio
AAAUAUAUGAAAAGUAGAACUAUUCUACAGCAGCACAUGAAGAAAUGUGGUUGGUUCCAUCCUCCUGCCAAUGAGAUUUACCGAAAGAAUAAUAUUUCUGUCUUUGAGGUUGAUGGGAAC	0.219 ratio
AUUUGUUUCUUAUAAUAGCCCCUGGAGGAAUUGCUACACCCCCAGUGUAUGGUCAGCUUCUAGCUUUAUAUUUGCUCCAUAAUGACAUGAAUAAUGCAAGAUAUCUUUGGAAAAGAAUAC	0.548 ratio
GCGUGACUCGUAGGUGAGAACGCCGAGCCGCCGCCGCCGCCGAGAAGCCCUGUUAACGCUUUAGGGAGGAGAGUCUGGUGCCGACAAGAUGGCGGACGGGGAGCUGAACGUGGACAGCCU	0.222 ratio
UUUUUGAAGGGUGUGAUGCUUGGAAGCAUCUUCUGUGCCUUGAUCACUAUGCUAGGCCACAUUAGGAUUGGAAACAGAAUGCACCACCAUGAGCAUCACCAUCUGCAAGCCCCUAACAAA	0.112 ratio
GUGACCUGUGAGGACAUAAUGCCUUGGUUUUUUCUAAUGUAGAUGAUAUGGCUGUGAUACAUUAGGGCCAGCGUUAACCUCUGCUCCUCCUCCCUCUGUAGUUUUUACCUACAAUCAAUU	0.318 ratio

Sample 4
Target: RNA binding protein fox-1 homolog 2, RRM domain, GST-SBP tag (RBFOX2, Homo sapiens, UniProt O43251-10, residues 100-194)
Method: RNA Bind-n-Seq
Form: RNA
Sample: in vitro
Tested at: 365 nM
Notes: natural RNA segment, single round, ends assumed
Reference: no-protein control
Reading: higher = stronger binding
Shared flanks, not repeated: GGGAGUUCUACAGUCCGACGAUC … UGGAAUUCUCGGGUGCCAA
Residues (chain): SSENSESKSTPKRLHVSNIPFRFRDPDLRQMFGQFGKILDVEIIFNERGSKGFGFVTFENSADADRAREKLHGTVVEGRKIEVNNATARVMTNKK
Sequence	RBNS enrichment (R)
GAUAAAACCAAAGAGACAACCGUUGUGGAUCCACUGGUGAAAGUAGAGCUCUAUGGUGUUCCUGAAGACACAAAGGAGCAAGAGACCAGCCAUGUGGAGAACAAUGGUAU	0.423
UUUAACAGCCAUGCCUUCUGGAAUCUGGAAGAGGACACCACUCCUGCAGUCACUGGGCAGCCACAUAGCAGCUGCAGGUCCCAGGAGGGCCUGAGGUCAAAGCUGUGGAA	0.342
UGGCUCUGGGCGGUUCGUGCCCUUGCUAGCCACUACCCUUCAAUUCACCUGUGAUGCUAGCAUUAAUGGCACCACCAUAUUCAUGCCAGUAGGCUCCCUGCAGUCCUUGG	0.357
CUGUCAAAUGCAGUAGAUGAUGAAAGAAAGGUUGGUAUUAUCAGGAAAUGUUUUCUUAAGCUUUUCCUUUCUCUUACACCUGCCAUGCCUCCCCAAAUUGGGCAUUUAAU	0.31
UCAUCGAACAUUGACGCAGGUGAUGCUACUCUGGAAGGACCUCAGGGCAGCCAGGUGUGCGUGUCUUGAAAUUACUGACUUGAGUUCUUGUAUCACAACUAAUUUCAGCU	0.387
AAUGCCUUUAAUUCUUGUCUGAGAAUCUUGGCCAUGUGUCAGAUUAUCAGAACAAUUUUGUUACCAGGUCAGAAAUUGUGUUCUUUGACAACAGAUUGGAUCUGUAAUGU	0.299
GUCAAGUCAGCCAGAGGAAAGAGGUCGAGUUGACAGCAGCAGGCACUGCCCUUCCUAGUUGGUGGCUGCCAUGUUGGACUGUGGAUCUAAACACUUCUAGAGCUUUGUGG	0.924
GUCAGGCUGCUGAACCAGCCAACACAUGGGCUACUGCUGGGAAGCCUGGGCUGUUUUUUUUCUUAAACACAUUUUAUAUUACUGAACAACCAAAUCUACCCUCCACGGCC	0.525
CUGGUUCUGCGGACCCAGGAAGGGCCAGGCUGGGGCCCUGCUUGUGUUUAUCCUCGGCUGCUGUCUUCCCAGCAGGCCCCAGGCAAGGAGGCUUCCCAUUGCUGCUGCUA	0.435
GUUGAAGAGCUUUUCAUGUAUAGUAAACCAUGAUUCUGAGAGAAUCGAUUCUCCAAGGAGUCCUUCACUGGCCUAAACAUUCUGUAAUGUUGGGCAUUCAAGGGAAUGGA	0.279
AGGGAGCUUUUUAAAACACUUCAUUUCAGAUUCAUUAUUGAAAAAGGUCAUCAAAAUAAUUUUUGUGUAUAAGGGAAUUUACCUUGCUUACCUUACUAGUAUGACUAUUA	0.297
UAUUGUUUUACUUAGAAUAUUAGGAUUUUUUUUCACUAAUUUUUCUGCCAGUGAAGGAAAAUGGUCAUCCUUAGUACACAGAAAAGUAUGUUUUCACUUUUCCUUGUUCG	0.306

Sample 5
Target: TAR DNA-binding protein 43, full length, His tag (TARDBP, Homo sapiens, UniProt Q13148, residues 1-414)
Method: RNA Bind-n-Seq
Form: RNA
Sample: in vitro
Tested at: 20 nM
Notes: 6-mer, flanks averaged, single round
Added: 150 mM KCl
Reference: input library
Reading: higher = stronger binding
Sequence	6-mer enrichment (R)
CAUCUA	0.553
UCGGUG	1.24
GGCGGC	3.44
CACAGA	0.707
UAGGGG	3.83
ACGUGA	0.813
GUUAGG	1.5
UCGCAU	0.611
AAAUCU	0.587
GGUGAU	1.37
CGGAAU	0.814
CCCGCG	0.82
GAACCU	0.676
GCUCGG	1.5
UGCGUC	0.807
CCUCCU	0.575
CUGGGG	3.75
GAGUCU	0.781
GACGCU	0.819
GCGCAG	1.65
UUGUCA	0.609
CGUACG	0.862
GCCGUA	0.819
CAGGUU	0.743

A few entries again (sample 5):
Sequence	6-mer enrichment (R)
GGUGAU	1.37
CGGAAU	0.814
CCCGCG	0.82
GAACCU	0.676
GCUCGG	1.5
UGCGUC	0.807
CCUCCU	0.575
CUGGGG	3.75
GAGUCU	0.781
